Measured values from different studies.
Numbered parts are unrelated; each lists some results of a single study.

Set 1
Target: Prothrombin, mature alpha-thrombin (F2, Homo sapiens, UniProt P00734)
Method: aptamer microarray, sandwich
Molecule type: DNA with 2'F-ANA
Matrix: in vitro
Tested at: 200 nM
Notes: whole 15-mer aptamer, many near background
Added: Cy3 exosite-II aptamer, 400 nM
Reading: higher = stronger binding
For `GGTTGGTGTGGTTGG (2'F-ANA at 1 7 8 9 12 13)`, “mean fluorescence intensity” read 364 a.u.
For `GGTTGGTGTGGTTGG (2'F-ANA at 1 3 4 5 10 11 13 15)`, “mean fluorescence intensity” read 47 a.u.
`GGTTGGTGTGGTTGG (2'F-ANA at 1 2 4 5 8 9 12 14 15)` — result for “mean fluorescence intensity”: 51 a.u.
Under “mean fluorescence intensity”, `GGTTGGTGTGGTTGG (2'F-ANA at 2 4 5 7 12 13 14 15)` is recorded as 53 a.u.

Set 2
Target: Interferon regulatory factor 7, full length, phosphomimetic (IRF7, Homo sapiens, UniProt Q92985, residues 1-503, S471D/S472D/S475D/S476D/S477D/S483D/S484D/S487D)
UniProt Q92985, sequence (whole entry, unmodified, looked up): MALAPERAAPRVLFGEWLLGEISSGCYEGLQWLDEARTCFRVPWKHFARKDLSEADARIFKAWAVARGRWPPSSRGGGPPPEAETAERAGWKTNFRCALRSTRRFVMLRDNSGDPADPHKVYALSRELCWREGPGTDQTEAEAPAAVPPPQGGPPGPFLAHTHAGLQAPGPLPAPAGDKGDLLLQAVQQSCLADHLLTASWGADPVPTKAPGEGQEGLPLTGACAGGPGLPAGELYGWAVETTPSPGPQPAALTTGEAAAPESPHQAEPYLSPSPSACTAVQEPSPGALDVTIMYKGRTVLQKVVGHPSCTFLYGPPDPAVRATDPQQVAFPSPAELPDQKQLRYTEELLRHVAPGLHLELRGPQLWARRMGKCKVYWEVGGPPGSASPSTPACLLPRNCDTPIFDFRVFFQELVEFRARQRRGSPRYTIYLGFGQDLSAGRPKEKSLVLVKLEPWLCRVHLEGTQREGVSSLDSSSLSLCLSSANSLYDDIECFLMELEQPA
Method: protein-binding microarray
Molecule type: double-stranded DNA, one strand shown
Matrix: in vitro
Tested at: 2200 nM top
Notes: 60-bp whole probe
Added: salmon DNA 0.4 mg/ml
Reference: random background probes
Reading: higher = stronger binding
For `GCCTAGCACTTAGATTTCGGGGCTGGATTAGTGCTAGTCTTGATTCGCTTGACGCTGCTG`, “fitted relative affinity” read 0.735 z-score.
Under “fitted relative affinity”, `GCCTAGCACGACGGTCTCCTTCTCCTGCCGTGCTAGGTCTTGATTCGCTTGACGCTGCTG` is recorded as 0.715 z-score.
For `GCCTAGCACTTAGATTTCAGACTGGCTTAGTGCTAGGTCTTGATTCGCTTGACGCTGCTG`, “fitted relative affinity” read 0.161 z-score.

Set 3
Target: Histone acetyltransferase KAT6A, winged helix 1, GST fusion (KAT6A, Homo sapiens, UniProt Q92794, residues 1-85)
Method: protein binding microarray
Molecule type: double-stranded DNA, one strand shown
Matrix: in vitro
Tested at: not given
Notes: 8-mer, flanks averaged, mean of 2 arrays, mostly near background
Reference: not given
Reading: higher = stronger binding
Target sequence (chain): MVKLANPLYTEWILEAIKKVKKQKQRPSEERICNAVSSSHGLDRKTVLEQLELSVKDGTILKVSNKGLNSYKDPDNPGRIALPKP
`AACACAAC` has an E-score of -0.0672.
The E-score of `ATCACTAA` is reported as -0.0486.
The E-score of `AGCCGTTA` is reported as 0.28.
`GGAATCGA` gave an E-score of 0.0145.

Other studies, line by line
`PhoQ, residues 284 288 289 292 302 303 ASVMEA` has a fold induction of 18 (PhoP, residues 12 14 15 18 19 VQGLL (Escherichia coli, UniProt P23836); Sort-seq, refers to: YFP reporter; E. coli; PhoQ-PhoP variant library, added: 10 µM Mg2+; reference: high Mg2+ state, higher = stronger signaling).

Repeated from above (set 1):
`GGTTGGTGTGGTTGG (2'F-ANA at 1 2 4 5 8 9 12 14 15)` — result for “mean fluorescence intensity”: 51 a.u.
For `GGTTGGTGTGGTTGG (2'F-ANA at 1 3 4 5 10 11 13 15)`, “mean fluorescence intensity” read 47 a.u.
